Measured values collected from several papers.
Compare with care: the assays were run in different laboratories. ± marks the error that the study gave.
Organism: Plasmodium falciparum

CC(C)C[C@@H](NC(=O)[C@H]1CCCN1C(=O)[C@@H](CC(C)C)NC(=O)[C@@H](Cc1c[nH]c2ccccc12)NC(=O)[C@@H](CCCCN)NC(=O)[C@@H](CCCCN)NC(=O)[C@@H](C)NC(=O)[C@@H](CC(C)C)NC(=O)[C@@H](C)NC(=O)[C@@H](CC(C)C)NC(=O)[C@@H](C)NC(=O)[C@@H](CC(C)C)NC(=O)[C@@H](CCCCN)NC(=O)[C@H](N)CCCCN)C(=O)N[C@H](C)C(=O)N[C@H](CCCCN)C(=O)N[C@H](CCCCN)C(=O)N[C@H](CC(C)C)C(=O)N[C@H](C)C(=O)N[C@H](CC(C)C)C(=O)N[C@H](C)C(=O)N[C@H](CC(C)C)C(=O)N[C@H](C)C(=O)N[C@H](CCCCN)C(=O)N[C@H](CCCCN)C(N)=O — EC50 (SYBR Green fluorescence; 3D7; 48 h, 37 °C): 880 ± 60 nM
COC(=O)c1[nH]c(C(=O)OC)c2c1-c1c[nH]c3ccc(Cl)c(c13)C21C=Nc2ccc(Cl)cc21 (racemic) — EC50 (parasite growth, SYBR Green; DD2; 72 h, drug-resistant strain, blood stage): 4200 nM
CCC(C)C1NC(=O)C(Cc2ccccc2)NC(=O)C(CCCCCC(=O)C2CO2)NC(=O)C2CCCCN2C1=O (stereo not drawn) — EC50 (parasite growth, SYBR Green; DD2; drug-resistant strain, blood stage): 91 nM
O=C1C2=C(Nc3ccccc3SC2c2ccc(F)cc2)c2ccccc21 (racemic) — EC50 (growth, [3H]hypoxanthine incorporation; Dd2): 13 nM
CCC12C=C(C(=O)OC)n3c(c(c4ccccc43)CCN(C=CC(=O)OC)CCC1)C2OC (stereo not drawn) — EC50 (parasite growth, SYBR Green; DD2; drug-resistant strain, blood stage): 13200 nM
COc1ccccc1C1Sc2ccccc2NC2=C1C(=O)c1ccccc12 (racemic) — EC50 (growth, [3H]hypoxanthine incorporation; Dd2): > 5000 nM
CCC12C=C(C(=O)OC)n3c(c(c4ccccc43)CCN(C=CC(=O)OC)CCC1)C2c1ccc(O)cc1 (stereo not drawn) — EC50 (parasite growth, SYBR Green; DD2; drug-resistant strain, blood stage): 1810 nM
O=C1C2=C(Nc3ccccc3SC2C2CCCCC2)c2ccccc21 (racemic) — EC50 (growth, [3H]hypoxanthine incorporation; Dd2): 22 nM
CC(C)C[C@@H](NC(=O)[C@@H](C)NC(=O)[C@@H](CC(C)C)NC(=O)[C@@H](CCCCN)NC(=O)[C@H](N)CCCCN)C(=O)N[C@H](C)C(=O)N[C@H](CC(C)C)C(=O)N[C@H](C)C(=O)N[C@H](CCCCN)C(=O)N[C@H](CCCCN)C(=O)N[C@H](Cc1c[nH]c2ccccc12)C(=O)N[C@H](CC(C)C)C(=O)N[C@H](C)C(=O)N[C@H](CC(C)C)C(=O)N[C@H](C)C(=O)N[C@H](CCCCN)C(=O)N[C@H](CCCCN)C(=O)N[C@H](CC(C)C)C(=O)N[C@H](C)C(=O)N[C@H](CC(C)C)C(=O)N[C@H](C)C(=O)N[C@H](CC(C)C)C(=O)N[C@H](C)C(=O)N[C@H](CCCCN)C(=O)N[C@H](CCCCN)C(N)=O — EC50 (SYBR Green fluorescence; C10; 48 h, 37 °C): 2130 ± 140 nM

Repeated from above:
O=C1C2=C(Nc3ccccc3SC2c2ccc(F)cc2)c2ccccc21 (racemic) — EC50 (growth, [3H]hypoxanthine incorporation; Dd2): 13 nM
